Results pooled from the literature.
A part holds a random share of what one study measured. Changes are numbered by the printed parent chain.
UniProt Q9UF33, sequence (whole entry, looked up): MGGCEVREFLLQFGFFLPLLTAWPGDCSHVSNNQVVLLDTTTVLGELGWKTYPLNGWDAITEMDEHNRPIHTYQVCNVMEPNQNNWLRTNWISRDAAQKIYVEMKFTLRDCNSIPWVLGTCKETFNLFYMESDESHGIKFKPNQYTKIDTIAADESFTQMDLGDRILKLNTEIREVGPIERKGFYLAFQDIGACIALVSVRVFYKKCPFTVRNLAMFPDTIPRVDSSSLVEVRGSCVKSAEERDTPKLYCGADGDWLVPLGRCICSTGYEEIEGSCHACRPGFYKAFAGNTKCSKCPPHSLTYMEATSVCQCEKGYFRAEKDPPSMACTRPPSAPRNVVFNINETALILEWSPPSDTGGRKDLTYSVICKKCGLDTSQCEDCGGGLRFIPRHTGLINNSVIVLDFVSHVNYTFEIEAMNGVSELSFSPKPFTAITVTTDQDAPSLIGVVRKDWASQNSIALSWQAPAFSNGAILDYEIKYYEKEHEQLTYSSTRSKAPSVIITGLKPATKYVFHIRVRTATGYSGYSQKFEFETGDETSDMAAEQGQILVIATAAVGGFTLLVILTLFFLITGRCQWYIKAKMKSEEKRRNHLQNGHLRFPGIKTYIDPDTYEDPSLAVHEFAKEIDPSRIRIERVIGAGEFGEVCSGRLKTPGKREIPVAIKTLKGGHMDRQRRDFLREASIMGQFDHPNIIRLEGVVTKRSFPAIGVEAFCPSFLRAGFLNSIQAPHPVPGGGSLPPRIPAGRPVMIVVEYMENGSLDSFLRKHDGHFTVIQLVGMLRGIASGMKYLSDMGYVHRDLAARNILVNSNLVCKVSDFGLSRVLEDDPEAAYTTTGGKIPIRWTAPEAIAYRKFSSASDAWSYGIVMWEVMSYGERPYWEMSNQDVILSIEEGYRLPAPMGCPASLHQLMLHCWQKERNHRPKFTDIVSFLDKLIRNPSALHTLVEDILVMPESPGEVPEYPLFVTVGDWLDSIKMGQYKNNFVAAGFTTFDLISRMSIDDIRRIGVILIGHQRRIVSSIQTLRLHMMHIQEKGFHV

Set 1 — method: protein binding microarray; molecule type: double-stranded DNA, one strand shown; sample: in vitro; concentration: not given; relative to: not given; direction: higher = stronger binding
Target: Histone acetyltransferase KAT6A, both winged helices, GST fusion (KAT6A, Homo sapiens, UniProt Q92794, residues 1-181)
Notes: 8-mer, flanks averaged, mean of 2 arrays, mostly near background
Construct (chain): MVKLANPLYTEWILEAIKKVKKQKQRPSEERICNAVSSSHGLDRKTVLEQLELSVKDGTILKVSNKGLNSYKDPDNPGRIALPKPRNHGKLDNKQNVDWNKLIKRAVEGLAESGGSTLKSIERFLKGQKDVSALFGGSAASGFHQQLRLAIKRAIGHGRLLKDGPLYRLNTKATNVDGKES
Oligonucleotide | E-score
ATCGTATC | -0.151
GATTTCAA | 0.0459
AATCGCGT | 0.15
ATCTAGAG | -0.202
GACTTTGA | -0.132
GAACCCCA | -0.189
CCCGTACA | 0.143
CGCCGCGA | 0.301

Set 2 — method: RNA Bind-n-Seq; molecule type: RNA; sample: in vitro; concentration: 20 nM; notes: 6-mer, flanks averaged, single round; with: 150 mM KCl; relative to: input library; direction: higher = stronger binding
Target: TAR DNA-binding protein 43, full length, His tag (TARDBP, Homo sapiens, UniProt Q13148, residues 1-414)
Oligonucleotide | 6-mer enrichment (R)
GCCCGC | 0.788
UUUCGG | 0.777
CGGGCC | 1.95
GCCGCC | 0.869
UCCCUG | 0.683
GUGAAA | 1.01
GUUGCG | 1.44
AUGUCG | 0.823

Set 3 — target: CCNB2, cyclin fold, Cln2 fusion (human); method: yeast growth competition, sequencing; sample: yeast; notes: weak parent motif; relative to: not given; direction: higher = stronger binding
Starting sequence: SAMHD1 docking peptide (human); ASKSRVQLFKDDP
Variant | normalised enrichment score
ASKSRRQLFKDDP [V6R] | 0.636
ASKSRVQLNKDDP [F9N] | 0.393
ASKSRVQLFKDKP [D12K] | 0.335
ASKSGVQLFKDDP [R5G] | -0.188
ASKSRVQLFKCDP [D11C] | 0.306
ASKSRGQLFKDDP [V6G] | 0.179
ASKSPVQLFKDDP [R5P] | -0.678
ASKSRVQLFKPDP [D11P] | 0.68

Mixed results
Compound | target | assay | setting | measurement | result
Cc1c(NC(=O)c2cc(C(N)=O)nc3cc(F)ccc23)c(C(F)(F)F)nn1Cc1ccc(C#N)cc1 | Ephrin type-A receptor 6 (EPHA6, Homo sapiens, UniProt Q9UF33) | cell-free assay, competition with immobilised ligand | 1 µM | remaining binding | 87%
